Measured values collected from several papers.
Parts stem from different laboratories: compare values within a part only.

Set 1
Target: Ras GTPase-activating protein-binding protein 1, C-terminal RGG region (G3BP1, Homo sapiens, UniProt Q13283)
Sequence of UniProt Q13283 (whole entry, looked up): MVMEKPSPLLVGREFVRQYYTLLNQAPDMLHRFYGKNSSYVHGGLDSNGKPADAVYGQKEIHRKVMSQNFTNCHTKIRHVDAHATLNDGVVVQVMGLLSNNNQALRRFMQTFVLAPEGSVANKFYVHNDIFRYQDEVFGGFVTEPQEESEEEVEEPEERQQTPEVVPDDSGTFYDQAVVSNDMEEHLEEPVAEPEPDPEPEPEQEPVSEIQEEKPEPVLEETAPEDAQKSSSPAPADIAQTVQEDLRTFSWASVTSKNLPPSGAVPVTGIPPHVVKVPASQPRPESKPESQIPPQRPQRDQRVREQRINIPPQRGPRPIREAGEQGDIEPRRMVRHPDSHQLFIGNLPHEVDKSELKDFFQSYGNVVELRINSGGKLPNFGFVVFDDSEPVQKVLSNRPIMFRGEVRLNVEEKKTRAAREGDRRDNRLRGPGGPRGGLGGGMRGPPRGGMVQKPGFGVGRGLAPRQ
Method: RNA Bind-n-Seq
Form: RNA
Matrix: in vitro
Concentration: 1 µM
Notes: whole 134-nt RNA, ends assumed
Added: 150 mM KCl
Relative to: input library
Direction: higher = stronger binding
Endpoint: log2 enrichment
All sequences stand within: GGGAGUUCUACAGUCCGACGAUC … UGGAAUUCUCGGGUGUCAAGG
UAACUUUAGAGGAGGAUCUGAUGGAUAUGGCAGUGGACGUGGAUUUGGGGAUGGCUAUAAUGGGUAUGGAGGAGGACCUGGAGUUGGCAA: -1.01
UCCUCAAGUCCUGUGCUACACAUCGUAUGUACCGAAUCGGGAGGAGGGAGGAAAGUAUUAUGUUACGCCGUUCGGAUCUGCACUUCCAGC: -1.1
AGUCCUGUGCUACACAUCGUAUGUACCGAAUCGGGUUUUUGGGUUUUUGGGUUUGGGAAAGUAUUAUGUUACGCCGUUCGGAUCUGCACU: 0.565
CUCAAGUCCUGUGCUACACAUCGUAUGUACCGAAUCGGCCGGGCCGGCCGGGGAAAGUAUUAUGUUACGCCGUUCGGAUCUGCACUUCCA: -1.1
AAGUCCUGUGCUACACAUCGUAUGUACCGAAUCGGUUUUGGGGUUUUGGGUUUUGGGAAAGUAUUAUGUUACGCCGUUCGGAUCUGCACU: -0.544
UCCUGUGCUACACAUCGUAUGUACCGAAUCGGCCCCCCGGCCCCCCGGGGCCCCCCGGGAAAGUAUUAUGUUACGCCGUUCGGAUCUGCA: -1.05
AAGUCCUGUGCUACACAUCGUAUGUACCGAAUCGGGUUUGGGAAAGGGUUUUUGGGAAAGUAUUAUGUUACGCCGUUCGGAUCUGCACUU: 1.64
AGUCCUGUGCUACACAUCGUAUGUACCGAAUCGGGGUUUUGGGUUUUGGUUUUGGGGAAAGUAUUAUGUUACGCCGUUCGGAUCUGCACU: -0.572
UAACUUUAGAGGAGGAUCUGAUGGAUAUGGCAGUGGACGUGGAUUUGGGGAUGGCUACAAUGGGUAUGGAGGAGGACCUGGAGGUGGCAA: -0.921
UGGGAGGUGGACUUUGUUUAUUUUUUUAGCUCAUUUCCAGGGGUGGGAAUUUUUUUUUAAUAUGUGUCAUGAAUAAAGUUGUUUUUGAAA: 3.57

Set 2
Target: Interferon regulatory factor 7, full length, phosphomimetic (IRF7, Homo sapiens, UniProt Q92985, residues 1-503, S101K/S471D/S472D/S475D/S476D/S477D/S483D/S484D/S487D)
Method: protein-binding microarray
Form: double-stranded DNA, one strand shown
Matrix: in vitro
Concentration: 250 nM
Notes: 60-bp whole probe
Added: salmon DNA 0.4 mg/ml
Relative to: random background probes
Direction: higher = stronger binding
Endpoint: log fluorescence
All sequences stand within: GCCTAGCAC … GTCTTGATTCGCTTGACGCTGCTG
Residues (chain): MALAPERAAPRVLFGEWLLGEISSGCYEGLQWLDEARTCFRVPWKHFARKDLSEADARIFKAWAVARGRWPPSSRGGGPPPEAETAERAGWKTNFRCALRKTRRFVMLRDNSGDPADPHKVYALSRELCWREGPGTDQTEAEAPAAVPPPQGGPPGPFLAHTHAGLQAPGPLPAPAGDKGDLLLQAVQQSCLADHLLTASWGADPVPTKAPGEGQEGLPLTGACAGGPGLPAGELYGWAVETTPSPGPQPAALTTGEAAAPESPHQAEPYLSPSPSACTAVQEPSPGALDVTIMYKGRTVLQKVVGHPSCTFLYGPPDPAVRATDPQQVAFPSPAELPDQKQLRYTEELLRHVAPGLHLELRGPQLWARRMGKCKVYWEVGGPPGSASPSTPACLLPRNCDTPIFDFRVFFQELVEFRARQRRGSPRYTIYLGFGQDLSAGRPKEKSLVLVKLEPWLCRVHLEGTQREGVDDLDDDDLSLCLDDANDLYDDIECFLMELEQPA
TTAGGACTGGGTCTCGGTTGGTGCTAG: 1.08 z-score
GACGGTTTGGACACTGGGGACGTGCTA: -0.451 z-score
TCACATGTGCTGTCTCAGACTGTGCTA: -0.706 z-score
TGGCAGCATTCTTGGAAATCGTGCTAG: -0.752 z-score
GACGCTATCGGTATCGGGACGTGCTAG: 0.442 z-score
GTAGGTCTCGGTATCGGTTAGTGCTAG: 2.98 z-score
TTAGGTTTCGGGACTGGGTTTGTGCTA: 3.73 z-score

Set 3
Target: Histone acetyltransferase KAT6A, winged helix 1, GST fusion (KAT6A, Homo sapiens, UniProt Q92794, residues 1-85)
Method: protein binding microarray
Form: double-stranded DNA, one strand shown
Matrix: in vitro
Concentration: not given
Notes: 8-mer, flanks averaged, mean of 2 arrays, mostly near background
Relative to: not given
Direction: higher = stronger binding
Endpoint: E-score
Target sequence (chain): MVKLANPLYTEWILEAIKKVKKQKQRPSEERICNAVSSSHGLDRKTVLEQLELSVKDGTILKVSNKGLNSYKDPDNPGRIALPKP
ACCTCCGC: 0.186
CATGAGAC: -0.136
CCTCGAGA: -0.183
ACCTACCC: -0.0298
AGCGATAC: 0.019
ACGCCTTC: 0.0328
AGGCTCGC: 0.129
AGCTATGC: 0.053
CTGCCACA: -0.129
CCAGTGCA: -0.18
GTTGAGTA: -0.0122
TCCGTAAA: 0.141

Single results of other studies
PhoQ, residues 284 288 289 292 302 303 SQSLSM — fold induction (PhoP, residues 12 14 15 18 19 VQALL (Escherichia coli, UniProt P23836); Sort-seq, item: YFP reporter; E. coli; PhoQ-PhoP variant library, added: 10 µM Mg2+; relative to: high Mg2+ state, higher = stronger signaling): 12.1

A few entries again (set 1):
AAGUCCUGUGCUACACAUCGUAUGUACCGAAUCGGUUUUGGGGUUUUGGGUUUUGGGAAAGUAUUAUGUUACGCCGUUCGGAUCUGCACU: -0.544
UGGGAGGUGGACUUUGUUUAUUUUUUUAGCUCAUUUCCAGGGGUGGGAAUUUUUUUUUAAUAUGUGUCAUGAAUAAAGUUGUUUUUGAAA: 3.57
UCCUGUGCUACACAUCGUAUGUACCGAAUCGGCCCCCCGGCCCCCCGGGGCCCCCCGGGAAAGUAUUAUGUUACGCCGUUCGGAUCUGCA: -1.05
CUCAAGUCCUGUGCUACACAUCGUAUGUACCGAAUCGGCCGGGCCGGCCGGGGAAAGUAUUAUGUUACGCCGUUCGGAUCUGCACUUCCA: -1.1
UAACUUUAGAGGAGGAUCUGAUGGAUAUGGCAGUGGACGUGGAUUUGGGGAUGGCUACAAUGGGUAUGGAGGAGGACCUGGAGGUGGCAA: -0.921
